Published values of several laboratories.
A part holds a random share of what one study measured. Several values in a cell are separate wells, animals, samples, runs or records.

Study 1 — cell line: mouse MPNST tumor cells; method: high-content immunofluorescence imaging; refers to: nuclear SOX9; concentration: 10 µM; time: 12 h; setting: mean of 2 replicates; reference: DMSO control; direction: higher = more nuclear SOX9
| SMILES | nuclear SOX9 intensity |
| --- | --- |
| CC(O)(CS(=O)(=O)c1ccc(F)cc1)C(=O)Nc1ccc(C#N)c(C(F)(F)F)c1 (centres unmarked) | 116 % of DMSO and 82.7 % of DMSO and 104 % of DMSO |
| C[N+]1(C)[C@@H]2CC[C@H]1C[C@@H](OC(=O)C(CO)c1ccccc1)C2 (some centres unmarked) | 108 % of DMSO |
| CN(C)[C@@H]1C(=O)C(C(N)=O)=C(O)[C@@]2(O)C(=O)C3=C(O)c4c(O)cccc4[C@@](C)(O)[C@H]3[C@H](O)[C@@H]12 | 118 % of DMSO |
| CC(C)c1cccc(C(C)C)c1O | 79.6 % of DMSO |

Study 2 — cell line: HEK-293T/ACE2; concentration: concentration not given; time: 16 (unit not given); reference: vehicle
| SMILES | viability |
| --- | --- |
| COC(=O)c1ccccc1O | 98.3% |
| CCCCc1ncc(/C=C(\Cc2cccs2)C(=O)O)n1Cc1ccc(C(=O)O)cc1 | 99.7% |
| C=CC[N+]1([C@H]2C[C@H]3[C@@H]4CC[C@H]5C[C@H](O)[C@@H](N6CCOCC6)C[C@]5(C)[C@H]4CC[C@]3(C)[C@H]2OC(C)=O)CCCC1 | 103% |
| CN(C)CCC[C@@]1(c2ccc(F)cc2)OCc2cc(C#N)ccc21 | 106% |
| CN1C[C@H](C(=O)N[C@]2(C)O[C@@]3(O)[C@@H]4CCCN4C(=O)[C@H](Cc4ccccc4)N3C2=O)C[C@@H]2c3cccc4[nH]cc(c34)C[C@H]21 | 99% |
| CN1CCC(OC(c2ccccc2)c2ccccc2)CC1 | 101% |
| CC(C)Cn1cnc2c(N)nc3ccccc3c21 | 89.8% |
| COCCOC(=O)C1=C(C)NC(C)=C(C(=O)OC(C)C)C1c1cccc([N+](=O)[O-])c1 (centres unmarked) | 102% |
| O=C(c1ccc(F)c(F)c1Nc1ccc(I)cc1F)N1CC(O)([C@@H]2CCCCN2)C1 | 94.1% |
| C[C@]12CCC(=O)C=C1CC[C@@H]1[C@@H]2[C@@H](O)C[C@@]2(C)[C@H]1CC[C@]2(O)C(=O)CO | 104% |
| Nc1nc2c(c(=O)[nH]1)N(C=O)C(CNc1ccc(C(=O)N[C@@H](CCC(=O)O)C(=O)O)cc1)CN2 (some centres unmarked) | 103% |

Study 3 — observed: binding; method: competitive fluorescence polarization; with: FITC-PKN2-RxL peptide tracer
Target: Cyclin-dependent kinase 2/cyclin E1 (Homo sapiens, UniProt P24864+P24941)
| SMILES | Kd [µM] |
| --- | --- |
| CC(C)C[C@H](NC(=O)[C@H](CCCNC(=N)N)NC(=O)[C@H](CCCNC(=N)N)NC(=O)[C@H](CCCCN)NC(=O)[C@H](C)NC(=O)[C@H](CO)NC(=O)CN)C(=O)N[C@@H](Cc1ccccc1)C(=O)NCC(=O)N[C@@H](CCC(=O)O)C(=O)N[C@@H](CC(=O)O)C(=O)N1CCC[C@H]1C(=O)N1CCC[C@H]1C(=O)O | 0.596 |
| CC[C@H](C)[C@H](NC(=O)[C@H](CC(=O)O)NC(=O)[C@H](CC(C)C)NC(=O)[C@H](CC(=O)O)NC(=O)[C@H](CC(C)C)NC(=O)[C@H](CCCNC(=N)N)NC(=O)[C@H](CCCNC(=N)N)NC(=O)[C@H](CCCCN)NC(=O)[C@@H](NC(=O)[C@H](CCCCN)NC(=O)[C@@H](N)CCC(=O)O)C(C)C)C(=O)N[C@@H](CC(=O)O)C(=O)NCC(=O)O | 8.13 |
| CSCC[C@H](NC(=O)[C@@H](NC(=O)[C@H](CC(=O)O)NC(=O)[C@H](CO)NC(=O)[C@H](Cc1ccccc1)NC(=O)[C@H](CC(=O)O)NC(=O)[C@H](CC(C)C)NC(=O)[C@H](CCCCN)NC(=O)[C@H](CCC(N)=O)NC(=O)[C@@H](NC(=O)[C@H](C)NC(=O)[C@H](CO)NC(=O)[C@@H](N)C(C)C)C(C)C)[C@@H](C)O)C(=O)O | 57 |
| CC(C)C[C@H](NC(=O)[C@H](CCC(N)=O)NC(=O)[C@H](CO)NC(=O)[C@H](CCCNC(=N)N)NC(=O)[C@H](C)NC(=O)CNC(=O)[C@@H](N)CCCNC(=N)N)C(=O)N[C@@H](Cc1ccccc1)C(=O)N1CCC[C@H]1C(=O)N1CCC[C@H]1C(=O)N[C@H](C(=O)N[C@@H](CCC(=O)O)C(=O)N[C@@H](C)C(=O)O)[C@@H](C)O | 164 |
| CC(C)C[C@H](NC(=O)[C@H](CC(N)=O)NC(=O)[C@H](CCCNC(=N)N)NC(=O)[C@H](CCCCN)NC(=O)[C@H](C)NC(=O)[C@H](CC(N)=O)NC(=O)[C@@H](N)CCCCN)C(=O)N[C@@H](CO)C(=O)N[C@@H](CO)C(=O)N[C@@H](CCC(=O)O)C(=O)N[C@@H](Cc1ccccc1)C(=O)N[C@@H](C)C(=O)N[C@@H](CC(N)=O)C(=O)O | 6.22 |

Study 4 — matrix: plasma
SMILES: O=C1CCC(N2Cc3c(ccc4c3OCC43CCN(Cc4ccccc4)CC3)C2=O)C(=O)N1 (centres unmarked)
| test system | setting | AUC(0-inf) |
| --- | --- | --- |
| male CD-1 mouse | intravenous, 1 mg/kg | 0.422 µg·h/mL |
| mouse, ICR, male | oral, 3.0 mg/kg | 1.65 µg·h/mL |
| male Sprague-Dawley rat | oral, 3 mg/kg | 1.17 µg·h/mL |
| male Sprague Dawley rats | oral, 3.0 mg/kg | 1.05 µg·h/mL |
| male ICR mice | intravenous, 1.0 mg/kg | 0.398 µg·h/mL and 0.453 µg·h/mL |
| male Sprague Dawley rats | intravenous, 1.0 mg/kg | 0.83 µg·h/mL |
| male ICR mice | oral, 3.0 mg/kg | 1.07 µg·h/mL and 1.29 µg·h/mL |
| mouse, ICR, male | intravenous, 1.0 mg/kg | 0.413 µg·h/mL |
| male Sprague-Dawley rat | intravenous, 1 mg/kg | 0.8 µg·h/mL |

A few entries again (study 4):
| test system | setting | AUC(0-inf) |
| --- | --- | --- |
| male Sprague-Dawley rat | intravenous, 1 mg/kg | 0.8 µg·h/mL |
| male ICR mice | intravenous, 1.0 mg/kg | 0.398 µg·h/mL and 0.453 µg·h/mL |
